Results from different studies.
Compare with care: the assays were run in different laboratories. Numbers after ± are the reported error.

SMILES	assay	system	conditions	scale	quantity	value
COc1ccnc(C(=O)N[C@H]2COC(=O)[C@H](Cc3ccccc3)[C@@H](OC(=O)C(C)C)[C@H](C)OC2=O)c1OCOC(=O)C(C)C	–	tomato, fruit	foliar, dose not given	–	share of total radioactive residue	≤ 95 % TRR
COc1cc(C(=O)NC2CCN(C)CC2)c(F)cc1Nc1ncc(C(F)(F)F)c(Oc2cccc3c2C(=O)N(C)C3)n1	–	human patients, urine	oral, 50 mg single dose, geometric mean	relative to: dose	fraction excreted in urine (0-24 h)	3.98%
CCCCCCCCCCCCCN(C)C	extrapolated from shorter analogues	–	–	–	pKa	10
CCN1[C@@H](C(=O)NC23CCC(C(=O)O)(CC2)CC3)[C@H](c2cccc(Cl)c2F)[C@]2(C(=O)Nc3cc(Cl)ccc32)C12CCCCC2	–	patients with advanced solid tumours	oral, dose not given, all doses	–	grade ≥3 Lymphocytopenia incidence	33.3%
CC(C)[C@@H]1NC(=O)CNC(=O)[C@H](CC(N)=O)NC(=O)[C@H](CCCNC(=N)N)NC(=O)[C@H](Cc2ccc(O)cc2)NC(=O)[C@H](C(C)C)NC(=O)[C@@H](NC(=O)[C@@H](NC(=O)[C@H](CC(N)=O)NC(=O)[C@H](Cc2c[nH]c3ccccc23)NC(=O)[C@H](C)NC(=O)[C@H](Cc2ccccc2)NC(=O)CN)C(C)C)CSSC[C@@H](C(=O)N[C@@H](Cc2cnc[nH]2)C(=O)N[C@@H](CCCNC(=N)N)C(=O)N[C@@H](CCCNC(=N)N)C(=O)N[C@@H](C)C(=O)N[C@@H](CC(N)=O)C(N)=O)NC(=O)[C@H](C(C)C)NC(=O)[C@H](CCCNC(=N)N)NC1=O	–	ICR mice, serum	intraperitoneal, 5 mg/kg, day 5	–	calcium	1.38 ± 0.02 mmol/L
N=C(CC(O)c1cc2c(F)cc(F)cc2c2cc(C(F)(F)F)ccc12)Nc1ccc(Br)cc1 (stereo not shown)	–	human	30 min	–	blood-to-plasma ratio	0.97 ± 0.07
O=C1Nc2cc3[nH]nc(-c4ccncc4)c3cc2CN1Cc1ccccc1	CTCAE v4.03	advanced solid tumour patients	intravenous, 4.8 mg/kg, schedules 1/2	–	patients with fatigue	25%
O=C(Nc1ccccc1)C1CCN(C(=O)Oc2cccnc2)CC1	adverse event reporting	healthy women	oral, 60 mg, 7 days	–	subjects with Overall adverse event	85.7%
CCc1ccc(CC/C=C/c2ccc3c(c2)C(=O)CC3)cc1	–	Sprague-Dawley rat, male	oral, 450 mg/kg/day, 14 days	–	Eosinophil percentage	0.57%
CCC[C@@](N)(CO)CCc1ccc(OCCCCCC(C)C)cc1	–	hound dogs, male	intravenous, 1.0 mg/kg, median	–	Tmax	2.5 h
COc1ncccc1-c1cnn2ccc(N3CCN(C(=O)OC(C)C)CC3)nc12	–	rat, brain	oral, 30 mg/kg, 1.5 h, added: yohimbine pretreatment	–	concentration	4.7 µM
COc1cc2c(Oc3ccc4[nH]c(C)cc4c3F)ccnc2cc1OCC1(N)CC1	–	paediatric refractory sarcoma patients	8 mg	–	sinus arrhythmia incidence	0%
CC(=O)c1c(C)c2cnc(Nc3ccc(C4CCN(CCS(C)(=O)=O)CC4)cn3)nc2n(C2CCCC2)c1=O	–	human, plasma	oral, 25 mg once daily, day 21, multiple doses	–	Cmax	79.2 ng/mL
C[C@@H]1OC(=O)NN=C1c1ccc(-c2ccc(F)cc2)c(C(F)(F)F)c1	phase I trial, refers to: Pneumonitis worst grade 3	human patients	20 mg loading then 1 mg daily	–	patients with adverse event	50%
COc1ccc2nc3cc(Cl)ccc3c(Nc3cc(CN4CCCC4)c(O)c(CN4CCCC4)c3)c2n1	–	mouse, blood	intraperitoneal, 14 mg/kg	–	red blood cell count	8.98 10¹²/L
O=S(=O)(Nc1ccccc1)c1ccc(NC(=S)Nc2ccccc2)cc1	refers to: ALKP	male mouse, blood	oral, 20 mg/kg daily, 14 days	–	serum enzyme activity	135 U/L
CNC(=O)n1ccc2cc(Oc3ccnc(NC(=O)c4ccc(C5CCN(CCO)CC5)cc4)c3)c(OCCOC)cc21	–	human, plasma	oral, 35 mg, 144 h	–	AUC(0-inf) extrapolated	< 5%
CN[C@@H](C)C(=O)N[C@H]1CN(S(=O)(=O)c2cccc(S(=O)(=O)N3CC[C@H]4CC[C@@H](C(=O)NC(c5ccccc5)c5ccccc5)N4C(=O)[C@@H](NC(=O)[C@H](C)NC)C3)c2)CC[C@H]2CC[C@@H](C(=O)NC(c3ccccc3)c3ccccc3)N2C1=O	–	patients with advanced solid tumours	0.6 mg, phase I monotherapy	–	treatment-related facial nerve disorder incidence	0%
C#C[C@]1(CO)O[C@@H](n2cnc3c(N)nc(F)nc32)C[C@@H]1O	–	monkey	29 days	–	NOAEL	20 mg/kg/dose

SMILES	assay	system	conditions	scale	quantity	value
Cc1cccc(Cn2nc(C3CC3)c3c(NC(=O)c4cnc5cc(OCCN6CCN(C)CC6)ccn45)cccc32)n1	refers to: Nausea	human advanced solid tumours	oral, 400 mg, all-causality	–	adverse events incidence	42.9%
CC[C@H](C)[C@H](NC(=O)[C@H](CCCCN)NC(=O)[C@H](CC(=O)O)NC(=O)[C@H](CC(C)C)NC(=O)[C@@H](NC(=O)[C@H](CC(N)=O)NC(=O)[C@H](CC(C)C)NC(=O)[C@@H](NC(=O)[C@H](Cc1ccccc1)NC(=O)[C@H](CCCCN)NC(=O)[C@H](CCCCN)NC(=O)CNC(=O)[C@H](C)NC(=O)[C@H](CC(N)=O)NC(=O)[C@H](CCCCN)NC(=O)[C@H](Cc1ccccc1)NC(=O)[C@H](CC(N)=O)NC(=O)[C@H](CCC(=O)O)NC(=O)[C@H](Cc1c[nH]c2ccccc12)NC(=O)[C@H](CC(C)C)NC(=O)[C@@H](N)CO)[C@@H](C)CC)[C@@H](C)CC)C(=O)N[C@@H](CCCNC(=N)N)C(=O)N[C@H]1CSSC[C@@H](C(=O)N[C@@H](CCCNC(=N)N)C(N)=O)NC(=O)CNC(=O)CNC(=O)[C@H](C)NC(=O)[C@H](C(C)C)NC(=O)[C@H](CCCNC(=N)N)NC1=O	–	horse erythrocytes	2 h, 37 °C	relative to: Triton X-100	HC50	58.9 µM
CC[C@H](C)[C@H](NC(=O)[C@H](Cc1ccccc1)NC(=O)[C@H](CCC(=O)O)NC(=O)[C@H](CCCNC(=N)N)NC(=O)[C@H](C)NC(=O)[C@H](C)NC(=O)[C@H](CCC(N)=O)NC(=O)[C@H](CCC(=O)O)NC(=O)[C@H](CCC(=O)O)NC(=O)[C@H](CC(C)C)NC(=O)[C@H](Cc1ccc(O)cc1)NC(=O)[C@H](CO)NC(=O)[C@H](CO)NC(=O)[C@@H](NC(=O)[C@H](CC(=O)O)NC(=O)[C@H](CO)NC(=O)[C@@H](NC(=O)[C@H](Cc1ccccc1)NC(=O)[C@@H](NC(=O)CNC(=O)[C@H](CCC(=O)O)NC(=O)[C@H](C)NC(=O)CCc1cnc[nH]1)[C@@H](C)O)[C@@H](C)O)C(C)C)C(=O)N[C@@H](C)C(=O)N[C@@H](Cc1c[nH]c2ccccc12)C(=O)N[C@@H](CC(C)C)C(=O)N[C@H](C(=O)N[C@@H](CCCNC(=N)N)C(=O)NCC(=O)N[C@@H](CCCNC(=N)N)C(=O)N[C@@H](CCCCNC(=O)COCCOCCNC(=O)COCCOCCNC(=O)CC[C@H](NC(=O)CCCCCCCCCCCCCCCCC(=O)O)C(=O)O)C(=O)NCC(=O)NCC(=O)N[C@@H](CO)C(=O)N[C@@H](CCCCNC(=O)[C@H](CCCCNc1c(NCCCCCN(O)C(=O)CCC(=O)NCCCCCN(O)C(=O)CCC(=O)NCCCCCN(O)C(C)=O)c(=O)c1=O)Nc1c(NCCCCCN(O)C(=O)CCC(=O)NCCCCCN(O)C(=O)CCC(=O)NCCCCCN(O)C(C)=O)c(=O)c1=O)C(=O)O)C(C)C [zirconium-89 labelled]	ex vivo gamma counting	male Sprague-Dawley rats, blood	intravenous, 1 nmol, 24 h	–	tissue uptake	0.363 %ID/g
CN1CC[C@@H](c2c(O)cc(O)c3c(=O)cc(-c4ccc(C(F)(F)F)cc4Cl)oc23)[C@@H]1CO	refers to: respiratory failure	B-cell malignancies	oral, 100 mg, grade 3 to 4, intermittent dosing	–	patients with adverse event	0%
CC(C)C[C@H](NC(=O)[C@H](CCCCN)NC(=O)OCC1c2ccccc2-c2ccccc21)C(=O)N[C@H](C(=O)N[C@@H](Cc1ccccc1)C(=O)N[C@@H](Cc1ccccc1)C(=O)N[C@@H](CCCCN)C(=O)NCC(=O)N[C@@H](Cc1ccccc1)C(=O)N[C@@H](C)C(=O)N[C@@H](Cc1c[nH]c2ccccc12)C(=O)N[C@@H](CC(N)=O)C(=O)N[C@H](C(=O)N[C@H]1CSSC[C@@H](C(=O)N[C@@H](Cc2c[nH]cn2)C(=O)N[C@@H](CCCNC(=N)N)C(=O)N[C@@H](CCCNC(=N)N)C(=O)N[C@@H](C)C(=O)N[C@@H](CC(N)=O)C(N)=O)NC(=O)[C@H](C(C)C)NC(=O)[C@H](CCCNC(=N)N)NC(=O)[C@H](C(C)C)NC(=O)CNC(=O)[C@H](CC(N)=O)NC(=O)[C@H](CCCNC(=N)N)NC(=O)[C@H](Cc2ccc(O)cc2)NC(=O)[C@H](C(C)C)NC1=O)C(C)C)C(C)C	HPLC	mouse kidney homogenate	2560 µM, 2.00 h, 37 °C, 50 mg/mL tissue	–	remaining peptide	86.9%
CO[C@H]1C[C@@H]2CC[C@@H](C)[C@@](O)(O2)C(=O)C(=O)N2CCCC[C@H]2C(=O)O[C@H]([C@H](C)C[C@@H]2CC[C@@H](OC(=O)NCCOCCOCCOCCOCCOCCOCCOCCOCCC(=O)N3CCc4cc(Cn5nc(-c6ccc7oc(N)nc7c6)c6c(N)ncnc65)ccc4C3)[C@H](OC)C2)C[C@@H](O)[C@H](C)/C=C(\C)[C@@H](O)[C@@H](OC)C(=O)[C@H](C)C[C@H](C)/C=C/C=C/C=C/1C	phase 1 dose escalation, refers to: fatigue	advanced solid tumour patients	intravenous, 6 mg weekly, any grade	–	TRAE incidence	41.7%
C=CC(=O)N1CC[C@H](n2nc(C#Cc3cc(OC)cc(OC)c3)c3c(N)ncnc32)C1	–	patients with advanced solid tumours	oral, dose not given, Nausea, any grade, QD, added: sevelamer hydrochloride	–	adverse drug reaction incidence	22.7%
CC(C)C[C@H](NC(=O)[C@H](CCC1CCCCC1)NC(=O)[C@@H]1CCCN1C(=O)c1ccc(F)cc1)C(=O)NC(C)(C)C(=O)N[C@@H](CC(C)C)C(=O)N[C@@H](CC(C)C)C(=O)NC(C)(C)C(=O)NC(C)(C)C(=O)NCCC(=O)NCCN(C)CC(F)F	circular dichroism	phosphate buffer	pH 7.4, 20 °C	–	alpha-helix content	11.4%
O=C(Nc1ccccc1)C1CCN(C(=O)Oc2cccnc2)CC1	refers to: Vomiting	healthy female human	concentration not given, all doses pooled	–	adverse event incidence	13%
Clc1ccc(Cl)c(-c2cc(Cl)ccc2Cl)c1	–	Sprague Dawley rat female, adipose tissue	intraperitoneal, 10 mg/kg, 3 weeks	–	concentration	357 ng/g
CCC[C@H]1CC[C@H](c2ccc(-c3ccc(F)cc3)cc2)CC1	–	rat, placenta	5000 ng/mL in perfusate, high dose, mixture of 21 LCMs	–	placental accumulation	332 ± 458 ng/g
[O-][S+]1CCc2nc(N3CCC(c4ncc(Cl)cn4)CC3)nc(NC3(CO)CCC3)c21 (stereo not shown)	refers to: mean	idiopathic pulmonary fibrosis patients, blood	18 mg twice daily, at last treatment	–	bilirubin	8 µmol/L
CC(C)(C)c1cc(-n2nc3ccccc3n2)c(O)c(C(C)(C)C)c1	exposure assessment	human, age 2-3 years	concentration not given, spray sunscreen, 95th percentile	–	daily dermal uptake, percentile	20.9 ng/kg body weight/day
N[C@@H]1c2ccccc2OC12CCN(c1cnc3c(N4CCCc5ncccc54)n[nH]c3n1)CC2	–	patients advanced metastatic solid tumours	oral, 60 mg once daily, pooled RP2D cohorts	–	incidence grade ≥3 serious TEAE	28%
COc1ccc(-c2c(-c3ccc(C#N)c(F)c3)nc(N3CCC(N)CC3)n(C)c2=O)cc1F	refers to: Urticaria	human patients	oral, 60 mg, dose expansion	–	serious adverse event incidence	0%
CCCCCOc1ccc(-c2ccc(-c3ccc(C(=O)N[C@H]4C[C@@H](O)[C@@H](OCC[N+](C)(C)C)NC(=O)[C@@H]5[C@@H](O)[C@@H](C)CN5C(=O)[C@H]([C@@H](C)O)NC(=O)[C@H]([C@H](O)[C@@H](O)c5ccc(O)cc5)NC(=O)[C@@H]5C[C@@H](O)CN5C(=O)[C@H]([C@@H](C)O)NC4=O)cc3)cc2)cc1	–	healthy male humans, blood, plasma	intravenous, 400 mg single, day 60	–	blood-to-plasma radioactivity ratio	0.86 to 1.02
C[C@]1(CO)Cc2ncn(-c3ccc(C#N)c(Cl)c3)c2C(=O)O1	–	human	5 mg single dose	–	subjects with severe TEAEs	0%
Cc1ccc(F)c2cc(C(=O)N[C@@H]3CCC[C@H](N4CC[C@H](N(C)S(C)(=O)=O)C4)C3)[nH]c12	–	CD1 mouse, plasma	intravenous, 1 mg/kg, 0.5 h	–	plasma concentration	129 ng/mL
